Assay results of several laboratories.
Compare with care: the assays were run in different laboratories. ± marks the error that the study gave.

Structure (SMILES)	target or system	test	test system	conditions	scale	endpoint	result
CC1=C(C(=O)OC2CCCCCC2)C(c2ccc([N+](=O)[O-])cc2)C2=C(CC(C)(C)CC2=O)N1 (stereo not shown)	Strongylocentrotus purpuratus	Ca2+ release, antagonist	sea urchin egg homogenate	together with: cADPR 300 nM	–	IC50	61 ± 14 nM
CNC(=O)CNc1cnc2ccc(-c3ccc(OC)c(OC)c3)cc2n1	Cryptosporidium parvum	parasite growth, imaging	HCT-8	intracellular	–	IC50	8340 nM
CN1C(=O)[C@@H](Cc2ccc(O)cc2)NC(=O)CNC(=O)[C@H](Cc2ccc3ccccc3c2)NC(=O)[C@H](CCCNC(=N)N)NC(=O)[C@H]1CCCNC(=O)c1ccc(CNC(=O)CN2CCN(CC(=O)O)CCN(CC(=O)O)CCN(CC(=O)O)CC2)cc1 [gallium-68 labelled]	–	–	SCID mice, lymphoma xenograft, lungs	intravenous, 1 h	–	tissue uptake	4.4 ± 0.6 %ID/g
NNc1nnc(Cl)c2ccccc12	Leishmania braziliensis	parasite growth, MTT	–	promastigote	–	IC50	> 25000 nM
COC1C=COC2(C)Oc3c(C)c(O)c4c(c3C2=O)C2=NC3(CCN(CC(C)C)CC3)NC2=C(NC(=O)C(C)=CC=CC(C)C(O)C(C)C(O)C(C)C(OC(=O)c2cccnc2)C1C)C4=O (stereo not shown)	Mycobacteroides abscessus	intracellular bacterial growth	THP-1 derived macrophages, ATCC 19977	–	–	IC50	30 nM
CN(C)CCSC(=S)N1CCN(C(=O)/C=C/c2coc3ccccc3c2=O)CC1	tomato spotted wilt virus	viral infection, half-leaf method	Nicotiana glutinosa	500 µg/mL	–	protective effect	60.8 ± 3.9%
O=[N+]([O-])/C(Br)=C/c1ccco1	Leishmania braziliensis	parasite growth	–	72 h, promastigote	–	IC50	1100 nM
O=Cc1c(O)ccc2ccccc12	HUVEC	RNA sequencing, refers to: BEX2	–	75 µM, 24 h	reference: DMSO	log2 fold change	5.26
CNC(=O)c1ccc(-c2cnc3cnc(C(=O)N(C)c4ccc(Cl)cc4)cn23)cc1	Cryptosporidium parvum	parasite growth, imaging	HCT-8	intracellular	–	IC50	54 nM
O=[N+]([O-])/C=C/c1ccc(Br)o1	Leishmania braziliensis	parasite growth	–	72 h, promastigote	–	IC50	800 nM
O=C(CCCN1C(=O)c2cccc3cccc(c23)C1=O)NO	Cryptosporidium parvum	parasite growth	HCT-8	48 h, intracellular	–	IC50	2100 nM
CCN(CC)CC#CCNc1ccnc2cc(Cl)ccc12	Plasmodium falciparum	parasite growth, SYBR Green	3D7	blood stage	–	IC50	25 nM
CN(C(=O)c1ccn2ncc(-c3ccc(C(N)=O)cc3)c2c1)C1CCC(C#N)CC1 (stereo not shown)	Cryptosporidium parvum	parasite growth, imaging	HCT-8	intracellular	–	IC50	> 20000 nM
CC(C)(C)OC(=O)N[C@H](Cc1ccccc1)[C@@H](O)CN1CCC(N2CCCCC2)CC1	Plasmodium berghei	parasite growth	HepG2	liver stage	–	IC50	1890 nM
COC1C=COC2(C)Oc3c(C)c(O)c4c(c3C2=O)C2=NC3(CCN(CC(C)C)CC3)NC2=C(NC(=O)C(C)=CC=CC(C)C(O)C(C)C(O)C(C)C(OC(=O)Nc2cccnn2)C1C)C4=O (stereo not shown)	Mycobacteroides abscessus	–	ATCC 19977	1:1 CAMHB:human serum	–	IC50	50 nM
Cc1cc(N2CC[C@@](C#N)(C3(C)CC3)C2=O)cc(C(=O)NCc2cc(F)cc(-c3cnn(C)c3)c2)n1	Plasmodium falciparum	parasite growth, ex vivo drug susceptibility	Brazilian clinical field isolates	–	–	IC50	9 nM
COc1ccc(C2CC(c3ccc(C)cc3)=Nc3ccccc3S2)cc1 (stereo not shown)	–	–	Wistar rat, STZ-induced diabetes	oral, 10 mg/kg once daily, day 7	–	body weight	189 ± 4.31 g
CCN(CC)CCSC(=S)N1CCN(C(=O)/C=C/c2coc3ccc(F)cc3c2=O)CC1	tomato spotted wilt virus	viral infection, half-leaf method	Nicotiana glutinosa	500 µg/mL	–	curative effect	63.3 ± 6.9%
[64Cu+2].c1ccc(CNCc2ccc(CN3CCCN4CCNCCCN(CC4)CC3)cc2)nc1	CXCR4	–	NOD/SCID mouse, U87 and U87-stb-CXCR4 xenografts, heart	iv, 90 min, ex vivo	–	tissue uptake	1.67 ± 0.25 %ID/g
N=C(NO)NN=Cc1cnc2cc(C(F)(F)F)ccc2c1O	Human mastadenovirus C	viral replication, plaque reduction	A549, Ad5 McEwen	6 days	–	IC50	inactive
COc1ccccc1NC(=O)OC1C(C)C(OC)C=COC2(C)Oc3c(C)c(O)c4c(c3C2=O)C2=NC3(CCN(CC(C)C)CC3)NC2=C(NC(=O)C(C)=CC=CC(C)C(O)C(C)C(O)C1C)C4=O (stereo not shown)	Mycobacteroides abscessus	–	ATCC 19977	1:1 CAMHB:human serum	–	IC50	150 nM
CCCCCC1CC2CCCC3CC(C)N=C(N1)N32 (stereo not shown)	Candida glabrata	fungal growth	ATCC 90030	–	–	IC50	19300 nM

Some of these lines once more:
Structure (SMILES)	target or system	test	test system	conditions	scale	endpoint	result
CC(C)(C)OC(=O)N[C@H](Cc1ccccc1)[C@@H](O)CN1CCC(N2CCCCC2)CC1	Plasmodium berghei	parasite growth	HepG2	liver stage	–	IC50	1890 nM
COC1C=COC2(C)Oc3c(C)c(O)c4c(c3C2=O)C2=NC3(CCN(CC(C)C)CC3)NC2=C(NC(=O)C(C)=CC=CC(C)C(O)C(C)C(O)C(C)C(OC(=O)Nc2cccnn2)C1C)C4=O (stereo not shown)	Mycobacteroides abscessus	–	ATCC 19977	1:1 CAMHB:human serum	–	IC50	50 nM
